Assay results from different studies.
Lines come from different studies, so protocols differ. “And” joins repeats or separate records; there may be more than shown. ± gives the spread as reported.

Structure (SMILES)	tested on	test	system	conditions	how to read	measurement	value
Nc1ncnc2c1ncn2[C@H]1C[C@H](O)[C@@H](COP(=O)(O)O)O1	THP-1	pyroptotic LDH release	–	2 µM, 40 min, together with: LPS then nigericin	–	inhibition	-2.48%
CN(C(=O)n1cnc(-c2ccc[n+]([O-])c2)c1)C1CCCCC1	–	–	rat, brain	10 mg/kg, 4 h	–	peak PEA level	4.8 ± 0.5 nmol/g
CC#CC(=O)N[C@H]1CCCN(c2c(F)cc(C(N)=O)c3[nH]c(C)c(C)c23)C1	–	–	healthy volunteers, multiple ascending dose, serum	1 mg once daily, day 21	–	change from baseline in serum IgM	-4.1%
OC(CCN1CCCCC1)(c1ccccc1)C1CC2C=CC1C2 (stereo not shown)	–	resting-state EEG	healthy elderly humans	oral, 4 mg, eyes open, LS mean	baseline: baseline	change in EEG Beta2-power Pz-O1	-2.2%
N=C(N)NCCC[C@H](NC(=O)[C@H](CCCNC(=N)N)NC(=O)[C@H](CCCCN)NC(=O)[C@H](CCC(N)=O)NC(=O)[C@H](CCCCN)NC(=O)[C@H](Cc1ccc(O)cc1)NC(=O)[C@@H](N)CCCCN)C(=O)N[C@@H](CO)C(=O)N[C@@H](Cc1ccc(O)cc1)C(=O)N[C@@H](CCCCN)C(=O)O	–	–	human, dentin hypersensitivity patients	topical to tooth, 5 µg/tooth repeated, day 36, phase 1/2a trial, higher-VAS tooth, together with: cold water at 4°C	direction not given	change in VAS score	-29.4 ± 27.7 mm
N#Cc1ccn2c(-c3ccncc3)c(-c3ccc(F)cc3)nc2c1	–	kinase binding, competitor, MIB/MS competition, refers to: CAK1	Candida albicans cell lysate	10 µM	baseline: DMSO	log2 fold change	0.231
Cc1cc(C)c(CNC(=O)c2cc(Cl)c3c(c2C)O[C@@](C)([C@H]2CC[C@H](N(C)C)CC2)O3)c(=O)[nH]1	–	IWG criteria, CR or PR	relapsed/refractory AITL patients	dose not given	–	overall response rate	64%
C[C@H]1C[C@H]2CSC(N)=N[C@@]2(c2nc(NC(=O)c3ccc(OC(F)F)cn3)cs2)CO1	–	refers to: Aβ1-40	healthy adults, plasma	540 mg single dose, 6 h post-dose	baseline: placebo	percent change from baseline	-86.9%
CC(C)NCC(O)c1ccc(O)c(O)c1 (stereo not shown)	–	–	ventricular cardiomyocytes, C57BL/6 mouse	dose not given, 0.368 s	–	sarcomere length	1.72 µm
CC[C@@H](C)[C@@H](NC(=O)[C@@H](Cc1ccc(O)cc1)NC(=O)[C@H]1CCCN1C(=O)[C@@H](CCCNC(=N)N)NC(=O)[C@H](N)Cc1c[nH]cn1)C(=O)N[C@H](C)C(=O)N[C@H](Cc1c[nH]cn1)C(=O)N[C@H](CCCNC(=N)N)C(=O)N[C@@H](C(=O)N[C@H](Cc1ccc(O)cc1)C(=O)N[C@H](CO)C(=O)N[C@H](Cc1ccccc1)C(N)=O)C(C)C	–	ex vivo flow cytometry	GL261-Luc brain tumour mice, spleen	dose not given	–	IFN-γ+ CD8+ T cell frequency	3.17% and 3.89% and 4.22% and 2.48%
CC(C)(C)NC(=O)[C@H]1CC[C@H]2[C@@H]3CC[C@H]4NC(=O)C=C[C@]4(C)[C@H]3CC[C@]12C	THP-1	pyroptotic LDH release	–	2 µM, 40 min, together with: LPS then nigericin	–	inhibition	-21.9%
CCN1CCN(Cc2ccc(Nc3ncc(F)c(-c4cc(F)c5nc6n(c5c4)[C@H](C)CCC6)n3)nc2)CC1	–	–	human advanced solid tumours	500 mg, phase Ia monotherapy RECIST 1.1	–	median progression-free survival	10.6 months
O=C(O)CNC(=O)Cc1ccccc1	–	–	ventricular cardiomyocytes, C57BL/6 mouse	dose not given, 0.812 s	–	sarcomere length	1.67 µm
Cc1cn(-c2cc(NC(=O)c3ccc(C)c(Nc4nccc(-c5cccnc5)n4)c3)cc(C(F)(F)F)c2)cn1	–	refers to: total tau	human, cerebrospinal fluid	dose not given, 6 months versus baseline, unit not given	baseline: placebo	median difference in change	47.6
NCC(=O)Nc1cncc(-c2nn3c(=O)cc(N4CCNCC4)nc3s2)c1	–	ADP-induced platelet aggregation, light transmission aggregometry	human stable CAD patients on aspirin, platelets ex vivo	0.04 mg/kg, 60 min post dose, together with: 20 µM ADP	baseline: placebo difference	inhibition of platelet aggregation	21.8%
CN[C@@H]1COc2c(S(=O)(=O)NC(=O)Nc3c4c(cc5c3CCC5)CCC4)cnn2C1	–	refers to: IL-18	human participants, whole blood ex vivo	150 mg single dose, 24 h, IL-18, circulating, adjusted for, together with: LPS/ATP	baseline: baseline	inhibition	78.1%

Some of these lines once more:
Structure (SMILES)	tested on	test	system	conditions	how to read	measurement	value
O=C(O)CNC(=O)Cc1ccccc1	–	–	ventricular cardiomyocytes, C57BL/6 mouse	dose not given, 0.812 s	–	sarcomere length	1.67 µm
Cc1cc(C)c(CNC(=O)c2cc(Cl)c3c(c2C)O[C@@](C)([C@H]2CC[C@H](N(C)C)CC2)O3)c(=O)[nH]1	–	IWG criteria, CR or PR	relapsed/refractory AITL patients	dose not given	–	overall response rate	64%
